Measurements pooled from the literature.
Parts stem from different laboratories: compare values within a part only. Values joined by “and” are separate records of one study, mostly repeats; a detail may differ.

Series 1
Cell line: mouse MPNST tumor cells
Method: high-content nuclear imaging
Measured: cell number
Tested at: 10 µM
Time: 12 h
Notes: mean of 2 replicates
Baseline: plate mean
Reading: higher = more cells
The nuclei count of `O=S(=O)(c1ccccc1F)N1CCOc2c(N3CCNCC3)cccc21` is reported as 3.56 z-score.
The nuclei count of `O=c1[nH]oc2c1CCNC2` is reported as 1.99 z-score and 1.86 z-score.
`CN1C(=O)CCS(=O)(=O)C1c1ccc(Cl)cc1` (stereo not shown) gave a nuclei count of 1.13 z-score and 0.909 z-score and 1.22 z-score.
For `C[N+](C)(C)CCCCCCCCCC[N+](C)(C)C`, the nuclei count was 0.902 z-score.
`CN(C)NC(=O)CCC(=O)O` gave a nuclei count of 2.12 z-score.

Series 2
Organism: Sarcocystis neurona
Read-out: parasite growth
Tested at: 10 µM
Time: 96 h
Notes: first screen
Baseline: untreated
`C[C@]12CC[C@H](O)CC1=CC[C@@H]1[C@@H]2CC[C@@]2(C)[C@H]1CC[C@]2(C)O`: “log2 fold change” 0.024.
`CN1CCN(C(=O)O[C@H]2c3nccnc3C(=O)N2c2ccc(Cl)cn2)CC1` — result for “log2 fold change”: 0.18.
`OCCN1CCN(CCCN2c3ccccc3Sc3ccc(Cl)cc32)CC1` — result for “log2 fold change”: -4.34.
Under “log2 fold change”, `CN1C(=O)COc2c(C(=O)NC3CN4CCC3CC4)cc(Cl)cc21` (stereo not shown) is recorded as 0.0743.
For `FC(F)(F)c1cccc(N2CCNCC2)c1`, “log2 fold change” read -0.22.
`c1ccc2c(c1)Nc1ccccc1S2` — result for “log2 fold change”: 0.23.
Under “log2 fold change”, `C[C@H]1[C@H](OC(=O)CCC(=O)O)O[C@@H]2O[C@@]3(C)CC[C@H]4[C@H](C)CC[C@@H]1[C@@]24OO3` is recorded as -3.67.

Series 3
Compound: CC(=O)N[C@@H](Cc1c[nH]c2ccccc12)C(=O)N[C@@H](CCC(=O)C=[N+]=[N-])C(=O)OC(C)C
Host: C57BL/6 CES1-/- mouse, both sexes
It gave 100% and 96.4% and 95.7% and 104% for body weight (0.3 mg/kg, day 17).
The body weight was 95.5% and 100% and 93.9% (1 mg/kg, day 8).
0.3 mg/kg, day 8 — body weight: 100%.
The body weight was 100% and 92.9% and 95.7% (0.3 mg/kg, day 11).
The body weight was 96.2% and 109% and 100% and 96.6% and 105% (0.1 mg/kg, day 11).
It gave 104% and 96.4% and 100% and 95.7% for body weight (0.3 mg/kg, day 10).

Single results of other studies
With `COc1ccc2c(c[n+](C)c3c4cc5c(cc4ccc23)OCO5)c1OC` the remaining compound was 73.7% (human, microsomes or S9; 2 µM, 0.5 h).

Excerpt of the above (series 3):
The body weight was 100% and 92.9% and 95.7% (0.3 mg/kg, day 11).
